Assay results pooled from the literature.
Numbered parts are unrelated; each lists some results of a single study. Changes are numbered by the printed parent chain.

Set 1 — technique: protein binding microarray; molecule type: double-stranded DNA, one strand shown; medium: in vitro; tested at: not given; relative to: not given; reading: higher = stronger binding
Target: Histone acetyltransferase KAT6A, winged helix 1, GST fusion (KAT6A, Homo sapiens, UniProt Q92794, residues 1-85)
Setting: 8-mer, flanks averaged, mean of 2 arrays, mostly near background
Residues (chain): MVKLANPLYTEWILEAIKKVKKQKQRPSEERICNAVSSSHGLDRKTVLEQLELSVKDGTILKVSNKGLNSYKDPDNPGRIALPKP
| Sequence | E-score |
| --- | --- |
| CCTCTACC | -0.0801 |
| GAACTGAC | -0.045 |
| TCTTGCAA | -0.17 |
| GAGTCTTA | -0.069 |
| AGGCTAAG | -0.104 |
| GCCACGCA | 0.246 |
| AGCCCATG | -0.149 |
| CTAAGCTC | -0.191 |
| ACACCTGG | -0.208 |
| AATTTTCC | -0.0422 |
| AGACGACC | 0.00183 |
| CCGACTTA | -0.0608 |
| ACAGGAAC | -0.191 |
| GACCTTCA | -0.01 |
| CCAATTAA | -0.0771 |
| CCCATGCC | -0.0765 |
| ATGAAACA | -0.164 |
| CAAGTAGG | -0.221 |
| TATGCAAA | -0.254 |
| CAGAGAGG | -0.224 |
| CGTCGGAG | 0.338 |
| GTCTCTCA | -0.0187 |
| GCGAATAA | 0.158 |
| CGATACCG | 0.297 |
| TCGCCCCA | -0.12 |

Set 2 — technique: RNA Bind-n-Seq; molecule type: RNA; medium: in vitro; tested at: 200 nM; setting: whole 134-nt RNA, ends assumed; together with: 150 mM KCl; relative to: input library; reading: higher = stronger binding
Target: Ras GTPase-activating protein-binding protein 1, full length (G3BP1, Homo sapiens, UniProt Q13283)
Chain of UniProt Q13283 (whole entry, looked up): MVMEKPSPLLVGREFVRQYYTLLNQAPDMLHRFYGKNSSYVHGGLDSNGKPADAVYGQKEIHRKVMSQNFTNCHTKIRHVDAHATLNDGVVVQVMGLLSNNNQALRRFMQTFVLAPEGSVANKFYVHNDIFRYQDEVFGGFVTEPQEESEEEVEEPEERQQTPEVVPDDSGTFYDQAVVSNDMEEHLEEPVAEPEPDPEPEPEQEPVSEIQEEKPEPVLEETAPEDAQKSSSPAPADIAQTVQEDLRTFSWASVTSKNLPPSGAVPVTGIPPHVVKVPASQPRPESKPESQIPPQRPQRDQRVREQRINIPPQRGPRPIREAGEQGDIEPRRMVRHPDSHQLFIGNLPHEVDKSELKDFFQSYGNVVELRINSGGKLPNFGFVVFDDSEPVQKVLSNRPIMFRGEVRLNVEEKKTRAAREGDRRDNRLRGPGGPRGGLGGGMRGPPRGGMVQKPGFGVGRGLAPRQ
| Sequence | log2 enrichment |
| --- | --- |
| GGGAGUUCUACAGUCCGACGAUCUCCUGUGCUACACAUCGUAUGUACCGAAUCGGGAAAAAAAGGGAAAGGGUUUUUUUGGGAAAGUAUUAUGUUACGCCGUUCGGAUCUGCAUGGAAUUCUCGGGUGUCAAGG | -0.368 |
| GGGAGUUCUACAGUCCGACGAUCCACAGACAACACCCACCCACACAGACACAGAGGGAAGGGGUUGGGAUGGGGACAGGGUGCACAGCAGGGCGGGGUAGGACCCCAGCCCCUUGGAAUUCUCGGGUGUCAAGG | 2.03 |
| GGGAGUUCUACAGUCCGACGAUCUGGGAGGUGGAUUUUGUUUACUUUUUUAGCUCAUUUCCAGGGGUGGGAAUUUUUUUUUAAUAUGUGUCAUGAAUAAAGUUGUUUUUGAAAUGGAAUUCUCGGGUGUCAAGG | 0.163 |
| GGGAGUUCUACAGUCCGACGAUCUUCAUUCCUUGGAAGAAGCUGUACCAUCGAUACCUGAUGAAUGAAGAGCAAGCUGUCAGCAAAGUGGACGGCAUCCUGUCUAACUGUGGCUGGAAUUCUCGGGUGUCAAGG | -2.18 |
| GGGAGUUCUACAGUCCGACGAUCAAGUCCUGUGCUACACAUCGUAUGUACCGAAUCAAACCCCCAAACCCAAAUUUAAAAAAGUAUUAUGUUACGCCGUUCGGAUCUGCACUUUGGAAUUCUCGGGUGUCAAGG | -0.184 |
| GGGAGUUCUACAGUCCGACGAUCUUUGAAAAAGAAGAAAAAGAAAAAGAAGGGUAAGGCAUUAAAAAAGUCUUUAUAAAUUUUCUCCAAAAUAAAUGUUUGAUUUUAGCCCUAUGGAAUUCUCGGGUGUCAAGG | -1.73 |
| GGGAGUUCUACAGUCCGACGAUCUUUUUCCAGAGCUCACAACGACCUGGGGCUGAGGACAAUGUCCUCAAUGAGAUCGUGAGUAUCUUGCAGCCCACCCAGGUCCCUGAGCAGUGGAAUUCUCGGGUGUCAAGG | -1.25 |
| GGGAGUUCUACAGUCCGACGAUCUAACUUUAGAGGAGGAUCUGAUGGAUAUGGCAGUGGACGUGGAUUUGGGGAUGGCUAUAAUGUGUAUGGAGGAGGACCUGGAGGUGGCAAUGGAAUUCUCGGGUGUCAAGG | 0.229 |
| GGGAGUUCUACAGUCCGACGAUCCACAGACAACACGCACCCACACAGACACAAAAGGAAGGGGUUGGGAUGGGGACAGGGUGCACAGCAGGGCGGGGUAGGACCCCAGCCCCUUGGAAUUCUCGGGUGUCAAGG | 1.76 |

Set 3 — target: CCNF, cyclin fold, Cln2 fusion (human); technique: yeast growth competition, sequencing; medium: yeast; setting: strong parent motif; relative to: not given; reading: higher = stronger binding
Starting sequence: ORC1 docking peptide (human); PRARKRLELGNLG
| Variant | normalised enrichment score |
| --- | --- |
| PRARKRLELQNLG [G10Q] | 2.61 |
| PRARRRLELGNLG [K5R] | 7.38 |
| GRARKRLELGNLG [P1G] | 2.29 |
| PRARKRLELGTLG [N11T] | 3.89 |
| PRARKFLELGNLG [R6F] | 3.24 |
| PRARKHLELGNLG [R6H] | 1.25 |
| PRARKRLELGNLH [G13H] | 3.51 |
| PRARKRAELGNLG [L7A] | 0.991 |
| PRARKRLELGNLP [G13P] | 4.24 |
| PRARKSLELGNLG [R6S] | 0.269 |
| PRARKRLELTNLG [G10T] | 2.21 |
| PRARQRLELGNLG [K5Q] | 0.863 |
| PSARKRLELGNLG [R2S] | 3.95 |
| PRARKRLELGNDG [L12D] | 3.65 |
| PRARKRLFLGNLG [E8F] | 5.11 |
| PRNRKRLELGNLG [A3N] | 2.09 |
| PRARKRLEMGNLG [L9M] | 4.17 |
| PRARKRLELENLG [G10E] | 4.34 |
| PRIRKRLELGNLG [A3I] | 2.02 |
| PRARKRLEEGNLG [L9E] | 0.894 |
| PRAMKRLELGNLG [R4M] | 0.9 |
| PRARNRLELGNLG [K5N] | 0.872 |
| PRARKRLELPNLG [G10P] | 2.21 |
| PRARKRLELMNLG [G10M] | 2.33 |
| PRARKRLELGCLG [N11C] | 4.61 |

Set 4 — technique: RNA Bind-n-Seq; molecule type: RNA; medium: in vitro; tested at: 365 nM; relative to: no-protein control; reading: higher = stronger binding
Target: RNA binding protein fox-1 homolog 2, RRM domain, GST-SBP tag (RBFOX2, Homo sapiens, UniProt O43251-10, residues 100-194)
Setting: natural RNA segment, single round, ends assumed
Target sequence (chain): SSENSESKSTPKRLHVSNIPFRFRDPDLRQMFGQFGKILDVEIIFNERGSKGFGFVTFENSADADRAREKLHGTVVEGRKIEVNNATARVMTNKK
| Sequence | RBNS enrichment (R) |
| --- | --- |
| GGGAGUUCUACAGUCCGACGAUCCCCUGUGUACCCAUUAACAAAGCCAACUAUGUCCUCUCUCCAGAAUGCCCACCCCUACUGUGGCCACAUCAUGCCCAGUGUCCCCCCAGGUAGGAGCAGAUACAGUGCAGUGGAAUUCUCGGGUGCCAA | 1.17 |
| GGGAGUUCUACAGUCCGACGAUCAAUCCUAUUGACAAUGUGAGCUCCUCUGAGUGUCUGUGAAAUACUUCCAGUGUUCCUCAUCAUGUUUCCAGCAAGUCCCUUUUUCUACGUUGCAGUUUGUUUAAUGUAUGUGGAAUUCUCGGGUGCCAA | 0.813 |
| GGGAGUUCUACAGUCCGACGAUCGGCUCACACUCCCAGCCUCCGCCACGCCACGAGGGACCUGUGACCCAGUGUCAUUCAGUAUUUUGUUGAGAAGACAUUUUUAUCCUAAUGAUUUGAAAACUAAGUUCAUGUGGAAUUCUCGGGUGCCAA | 0.266 |
| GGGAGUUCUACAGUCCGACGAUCUUCAUAAUUGGUGCAGAAAGAAGAAAUGAUCUGAAGAUGUGUUAAAUGGAUUGCAGGGGAAGGAAGGCCCAGGGCCCUGUGUGUCAUGCCCUCUUGGGUUCCUAAGUUCUUGGAAUUCUCGGGUGCCAA | 0.764 |
| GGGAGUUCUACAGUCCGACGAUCUGACACCCUGCGUCCCUGUGUGCAUUAAGUUCAUUCUGGGUCGCAGCCAUGAAGUGUCACCAGUAUCUACUACUGUGAAGUCAGCUGUGCUGUUUUCCAUUCGCUUCCACUGGAAUUCUCGGGUGCCAA | 0.183 |
| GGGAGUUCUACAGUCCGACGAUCUUGCCUUUUGUAAAGCUCUUUUGGCUAUUGUAACUUAACAAAUAAAAUCAUAAUUGUGUGCAUCUCUAGUUCUUGAGCAGCCUGUUACUUCUGUUUCUAAACAGAGUGGGUGGAAUUCUCGGGUGCCAA | 1.5 |
| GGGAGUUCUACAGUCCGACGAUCGCUGUAACAAAGCUAAGAACAGCACUUGACUAGUUUGGGCCCAAUCCCUGAUCUGAGUUGAUUUGUUUGACUGUCUUUGGGGCAAACCUUAGCAGCUCAGUAGAUUCUUCUGGAAUUCUCGGGUGCCAA | 0.897 |
| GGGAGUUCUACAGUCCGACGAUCCAGGCUCUCCUGAGCAGGACUGCUAAAGAGCUUGCCUCCUCAAAGCCUGGUCUCUGAGGUGCUUUCUAACAGCUGGAGGCACUUGUUCUGGGCUUUCCUUUGCCCUCAGUUGGAAUUCUCGGGUGCCAA | 0.271 |

A few entries again (set 1):
| Sequence | E-score |
| --- | --- |
| CTAAGCTC | -0.191 |
| ACACCTGG | -0.208 |
| AATTTTCC | -0.0422 |
| AGACGACC | 0.00183 |
| CCGACTTA | -0.0608 |
| ACAGGAAC | -0.191 |
